{"data": "Results pooled from the literature", "note": "A part holds a random share of what one study measured. Several values in a cell are separate wells, animals, samples, runs or records.", "UniProt Q04912, sequence (whole entry, looked up)": "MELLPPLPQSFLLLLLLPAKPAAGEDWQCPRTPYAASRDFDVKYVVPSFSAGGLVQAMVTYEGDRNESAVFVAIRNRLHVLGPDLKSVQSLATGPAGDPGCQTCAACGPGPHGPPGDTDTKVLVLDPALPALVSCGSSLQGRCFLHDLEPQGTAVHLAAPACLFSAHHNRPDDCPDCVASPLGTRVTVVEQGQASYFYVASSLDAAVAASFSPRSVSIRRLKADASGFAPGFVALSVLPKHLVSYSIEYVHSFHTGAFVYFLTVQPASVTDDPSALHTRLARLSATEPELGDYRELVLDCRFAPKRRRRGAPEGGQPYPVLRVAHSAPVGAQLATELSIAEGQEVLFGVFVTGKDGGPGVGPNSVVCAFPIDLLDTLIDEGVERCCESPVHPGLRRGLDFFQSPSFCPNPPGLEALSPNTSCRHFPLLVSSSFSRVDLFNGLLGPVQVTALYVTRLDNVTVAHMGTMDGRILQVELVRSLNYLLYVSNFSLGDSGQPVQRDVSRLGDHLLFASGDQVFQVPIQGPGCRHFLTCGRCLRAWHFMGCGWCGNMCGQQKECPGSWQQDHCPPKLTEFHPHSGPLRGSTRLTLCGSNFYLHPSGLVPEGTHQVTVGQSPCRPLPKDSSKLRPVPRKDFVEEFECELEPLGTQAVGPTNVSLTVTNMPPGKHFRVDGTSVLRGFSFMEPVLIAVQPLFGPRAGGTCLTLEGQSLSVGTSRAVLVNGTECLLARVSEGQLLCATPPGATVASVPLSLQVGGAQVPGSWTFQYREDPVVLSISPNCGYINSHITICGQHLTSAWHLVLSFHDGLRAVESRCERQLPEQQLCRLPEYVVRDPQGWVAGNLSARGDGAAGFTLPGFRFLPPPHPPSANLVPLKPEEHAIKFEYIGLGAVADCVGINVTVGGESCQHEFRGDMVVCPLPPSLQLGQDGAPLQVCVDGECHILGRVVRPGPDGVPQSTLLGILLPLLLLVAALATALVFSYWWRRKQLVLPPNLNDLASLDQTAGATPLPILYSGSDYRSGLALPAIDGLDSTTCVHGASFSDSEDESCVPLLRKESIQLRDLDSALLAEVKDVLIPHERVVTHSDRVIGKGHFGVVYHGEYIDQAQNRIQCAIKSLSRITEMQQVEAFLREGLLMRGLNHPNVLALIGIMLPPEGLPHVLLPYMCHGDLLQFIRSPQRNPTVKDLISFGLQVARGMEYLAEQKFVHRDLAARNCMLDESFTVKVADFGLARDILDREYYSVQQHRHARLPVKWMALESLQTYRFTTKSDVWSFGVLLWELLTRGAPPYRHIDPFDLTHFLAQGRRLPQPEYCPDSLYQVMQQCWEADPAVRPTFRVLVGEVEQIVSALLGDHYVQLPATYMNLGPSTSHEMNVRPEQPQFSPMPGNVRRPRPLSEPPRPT", "UniProt Q9UHD2, sequence (whole entry, looked up)": "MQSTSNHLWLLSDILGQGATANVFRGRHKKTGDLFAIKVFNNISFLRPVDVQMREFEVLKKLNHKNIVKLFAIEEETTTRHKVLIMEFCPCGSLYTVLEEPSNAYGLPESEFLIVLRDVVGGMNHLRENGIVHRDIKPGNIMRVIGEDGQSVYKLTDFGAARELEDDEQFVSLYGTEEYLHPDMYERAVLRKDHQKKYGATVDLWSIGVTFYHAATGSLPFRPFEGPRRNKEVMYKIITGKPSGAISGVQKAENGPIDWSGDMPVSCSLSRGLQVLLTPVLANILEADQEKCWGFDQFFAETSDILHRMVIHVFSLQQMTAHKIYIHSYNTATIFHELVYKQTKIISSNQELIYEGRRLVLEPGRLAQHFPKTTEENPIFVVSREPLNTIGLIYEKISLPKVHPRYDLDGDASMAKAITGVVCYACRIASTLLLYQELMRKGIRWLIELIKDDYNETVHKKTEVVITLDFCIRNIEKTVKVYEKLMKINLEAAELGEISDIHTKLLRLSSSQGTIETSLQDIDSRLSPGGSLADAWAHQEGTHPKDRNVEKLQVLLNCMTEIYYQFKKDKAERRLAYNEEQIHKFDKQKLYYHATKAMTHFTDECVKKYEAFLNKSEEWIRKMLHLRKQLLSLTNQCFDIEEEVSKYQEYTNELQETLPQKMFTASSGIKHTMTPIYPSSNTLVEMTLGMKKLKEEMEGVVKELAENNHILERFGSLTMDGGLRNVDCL", "UniProt P29320, sequence (whole entry, looked up)": "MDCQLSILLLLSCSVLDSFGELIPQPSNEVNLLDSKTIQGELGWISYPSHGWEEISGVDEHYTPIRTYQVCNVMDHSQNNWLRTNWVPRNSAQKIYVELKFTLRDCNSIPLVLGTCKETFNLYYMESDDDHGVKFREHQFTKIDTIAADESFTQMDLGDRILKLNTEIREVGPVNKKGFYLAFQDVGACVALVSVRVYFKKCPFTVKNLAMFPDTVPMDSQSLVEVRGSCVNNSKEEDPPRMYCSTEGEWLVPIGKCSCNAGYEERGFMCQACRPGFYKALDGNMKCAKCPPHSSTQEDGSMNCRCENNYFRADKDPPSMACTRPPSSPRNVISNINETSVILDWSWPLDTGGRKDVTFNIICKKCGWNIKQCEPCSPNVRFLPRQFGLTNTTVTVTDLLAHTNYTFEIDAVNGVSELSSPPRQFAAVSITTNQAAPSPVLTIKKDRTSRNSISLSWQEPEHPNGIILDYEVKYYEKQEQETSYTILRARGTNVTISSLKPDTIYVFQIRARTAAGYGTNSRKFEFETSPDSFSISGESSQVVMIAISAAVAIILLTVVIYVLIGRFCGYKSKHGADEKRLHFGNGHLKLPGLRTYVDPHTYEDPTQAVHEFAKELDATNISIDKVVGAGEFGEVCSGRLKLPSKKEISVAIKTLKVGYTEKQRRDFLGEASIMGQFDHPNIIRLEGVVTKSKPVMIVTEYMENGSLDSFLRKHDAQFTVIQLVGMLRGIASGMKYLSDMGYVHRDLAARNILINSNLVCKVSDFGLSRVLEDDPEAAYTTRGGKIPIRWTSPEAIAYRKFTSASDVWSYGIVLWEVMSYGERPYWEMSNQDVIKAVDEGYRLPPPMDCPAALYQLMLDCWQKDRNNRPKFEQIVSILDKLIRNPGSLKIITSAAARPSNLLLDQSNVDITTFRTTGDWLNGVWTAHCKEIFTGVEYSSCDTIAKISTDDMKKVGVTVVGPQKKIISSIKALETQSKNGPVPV", "UniProt Q99683, sequence (whole entry, looked up)": "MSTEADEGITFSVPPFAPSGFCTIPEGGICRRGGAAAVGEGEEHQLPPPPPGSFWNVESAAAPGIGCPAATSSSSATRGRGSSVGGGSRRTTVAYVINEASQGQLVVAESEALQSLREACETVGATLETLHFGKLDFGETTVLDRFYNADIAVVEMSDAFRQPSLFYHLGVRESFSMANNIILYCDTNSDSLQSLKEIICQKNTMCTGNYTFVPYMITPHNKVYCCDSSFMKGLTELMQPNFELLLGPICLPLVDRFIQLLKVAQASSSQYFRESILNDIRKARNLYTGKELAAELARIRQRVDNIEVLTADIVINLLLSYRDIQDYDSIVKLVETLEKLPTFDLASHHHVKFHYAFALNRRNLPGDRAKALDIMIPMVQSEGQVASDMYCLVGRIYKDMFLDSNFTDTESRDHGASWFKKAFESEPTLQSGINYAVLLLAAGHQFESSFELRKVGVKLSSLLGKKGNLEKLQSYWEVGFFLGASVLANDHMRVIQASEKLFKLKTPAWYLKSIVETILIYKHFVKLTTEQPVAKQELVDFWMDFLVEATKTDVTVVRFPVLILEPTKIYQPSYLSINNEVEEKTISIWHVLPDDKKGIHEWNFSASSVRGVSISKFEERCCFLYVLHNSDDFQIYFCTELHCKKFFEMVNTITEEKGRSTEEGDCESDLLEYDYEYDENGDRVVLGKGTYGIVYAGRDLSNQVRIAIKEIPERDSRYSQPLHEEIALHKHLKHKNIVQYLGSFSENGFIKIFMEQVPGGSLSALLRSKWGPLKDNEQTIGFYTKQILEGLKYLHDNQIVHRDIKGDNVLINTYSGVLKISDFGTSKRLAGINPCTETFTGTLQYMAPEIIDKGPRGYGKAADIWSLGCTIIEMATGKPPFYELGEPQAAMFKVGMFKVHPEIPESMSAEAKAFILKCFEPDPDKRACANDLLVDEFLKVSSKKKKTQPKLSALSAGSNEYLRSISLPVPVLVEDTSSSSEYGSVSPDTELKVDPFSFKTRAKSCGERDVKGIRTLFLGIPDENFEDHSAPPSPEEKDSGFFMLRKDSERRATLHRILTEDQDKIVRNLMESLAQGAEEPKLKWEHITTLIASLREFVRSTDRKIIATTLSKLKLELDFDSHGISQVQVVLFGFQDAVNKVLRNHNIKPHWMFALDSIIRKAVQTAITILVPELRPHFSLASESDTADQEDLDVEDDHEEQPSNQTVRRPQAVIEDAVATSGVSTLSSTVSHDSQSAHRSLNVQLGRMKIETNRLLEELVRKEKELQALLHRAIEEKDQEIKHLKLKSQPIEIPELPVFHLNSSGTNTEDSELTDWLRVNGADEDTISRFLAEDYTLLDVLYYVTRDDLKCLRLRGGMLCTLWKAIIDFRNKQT", "UniProt P06239, sequence (whole entry, looked up)": "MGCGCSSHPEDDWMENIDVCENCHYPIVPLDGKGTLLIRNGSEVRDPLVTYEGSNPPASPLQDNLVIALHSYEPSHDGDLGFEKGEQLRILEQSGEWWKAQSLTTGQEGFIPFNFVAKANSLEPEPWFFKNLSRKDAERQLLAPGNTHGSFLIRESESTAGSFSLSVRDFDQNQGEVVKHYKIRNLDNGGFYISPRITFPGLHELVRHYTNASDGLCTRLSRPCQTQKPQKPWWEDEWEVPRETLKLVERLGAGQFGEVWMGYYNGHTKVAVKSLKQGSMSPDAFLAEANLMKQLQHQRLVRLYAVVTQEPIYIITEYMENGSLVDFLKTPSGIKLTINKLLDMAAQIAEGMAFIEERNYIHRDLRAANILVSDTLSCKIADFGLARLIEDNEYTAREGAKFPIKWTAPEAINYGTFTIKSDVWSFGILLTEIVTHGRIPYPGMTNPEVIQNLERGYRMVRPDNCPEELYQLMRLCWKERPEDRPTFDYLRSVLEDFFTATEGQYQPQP"}
{"data": "Study 1", "host": "mouse", "medium": "microsomes or S9", "concentration": "2 µM", "time": "0.5 h"}
{"Compound": "Cc1nc(C(=O)NC(C)C(C)(C)C)c2n1CCCC2 (stereo not shown)", "remaining compound [%]": 23}
{"Compound": "CC(=O)Nc1cccc(C(=O)Nc2ccccc2)c1", "remaining compound [%]": 58.6}
{"Compound": "Fc1cccc(F)c1COCC1CON=C(c2cccs2)O1 (stereo not shown)", "remaining compound [%]": 57.1}
{"Compound": "COc1ccc(/C=C/c2cc(OC(C)=O)cc(OC3OC(COC(C)=O)C(OC(C)=O)C(OC(C)=O)C3OC(C)=O)c2)cc1OC(C)=O (stereo not shown)", "remaining compound [%]": 0.783}
{"Compound": "COn1c(-c2ccc(C(C)(C)C)cc2)cc2cc3cccccc-3c2c1=O", "remaining compound [%]": 37.4}
{"Compound": "COC(=O)c1c(CS(=O)(=O)c2ccccc2)n(S(=O)(=O)c2ccccc2)c2ccccc12", "remaining compound [%]": 21}
{"data": "Study 2", "Compound": "CN(C(=O)c1ccccc1)c1cc(N(C)c2ccc3c(c2)CCc2ccc(C(=O)NCCN4CCOCC4)cc2C3=O)ccc1F", "observed": "cell-free assay", "method": "competition with immobilised ligand", "concentration": "1 µM"}
{"target": "MST1R (Homo sapiens, UniProt Q04912)", "remaining binding": "100%"}
{"target": "MAST1 (Homo sapiens, UniProt Q9Y2H9)", "remaining binding": "100%"}
{"target": "TBK1 (Homo sapiens, UniProt Q9UHD2)", "remaining binding": "84%"}
{"target": "MTOR (Homo sapiens, UniProt P42345)", "remaining binding": "86%"}
{"target": "MINK1 (Homo sapiens, UniProt Q8N4C8)", "remaining binding": "93%"}
{"data": "Study 3", "cell line": "mouse MPNST tumor cells", "method": "high-content immunofluorescence imaging", "item": "nuclear SOX9", "concentration": "10 µM", "time": "12 h", "setting": "mean of 2 replicates", "baseline": "DMSO control", "reading": "higher = more nuclear SOX9"}
{"SMILES": "Cc1cc2c(cc1S(N)(=O)=O)S(=O)(=O)CCC2", "nuclear SOX9 intensity": "109 % of DMSO"}
{"SMILES": "C[C@]12CC[C@@H]3c4ccc(O)cc4CC[C@H]3[C@@H]1C[C@@H](O)[C@@H]2O", "nuclear SOX9 intensity": "105 % of DMSO"}
{"SMILES": "COc1ccc2[nH]c3c(-c4cccc5ccccc45)nccc3c2c1", "nuclear SOX9 intensity": "199 % of DMSO"}
{"SMILES": "CC1(C)c2cc(Cl)ccc2N(CCc2nn[nH]n2)c2ccc(Cl)cc21", "nuclear SOX9 intensity": "96.5 % of DMSO"}
{"SMILES": "CCOC(=O)O[C@]1(C(=O)OCCl)CC[C@H]2[C@@H]3CCC4=CC(=O)C=C[C@]4(C)[C@H]3[C@@H](O)C[C@@]21C", "nuclear SOX9 intensity": "99.7 % of DMSO"}
{"SMILES": "CCOC(=O)C1=C[C@@H](OC(CC)CC)[C@H](NC(C)=O)[C@@H](N)C1", "nuclear SOX9 intensity": "98.6 % of DMSO"}
{"data": "Study 4", "SMILES": "CC(C)C[C@H]1NC(=O)[C@H](N(C)C(=O)[C@@H](CC2CCC2)NC(=O)[C@H]2C[C@H](F)CN2C(=O)C2(C(F)(F)F)CC(F)(F)C2)CCCCNC(=O)C2(CC2)NC(=O)[C@@H](Cc2cc(Cl)ccc2Cl)N(C)C1=O", "method": "Vi-Cell counting", "time": "6 days", "baseline": "DMSO"}
{"cell line": "A549", "concentration": "200 nM", "cell count": "0.98 and 0.895 and 0.982"}
{"cell line": "HCC4006", "concentration": "60 nM", "cell count": "0.909 and 0.957 and 1.06"}
{"cell line": "NCI-H1299", "concentration": "60 nM", "cell count": "1.21 and 0.95 and 1.06"}
{"cell line": "NCI-H446", "concentration": "2 µM", "cell count": "0.83 and 0.927 and 0.935"}
{"data": "Study 5", "Compound": "CC(C)c1nn(-c2c(Cl)cccc2Cl)c2nc(Cc3ccc(OCCO)cc3)[nH]c(=O)c12", "observed": "enzyme activity", "mode": "inhibitor", "concentration": "0.5 µM", "baseline": "control"}
{"target": "CSNK1G2 (Homo sapiens, UniProt P78368)", "remaining activity": "95.7%"}
{"target": "CSNK1G3 (Homo sapiens, UniProt Q9Y6M4)", "remaining activity": "95.7%"}
{"target": "MST1R (Homo sapiens, UniProt Q04912)", "remaining activity": "97.5%"}
{"target": "NEK6 (Homo sapiens, UniProt Q9HC98)", "remaining activity": "105%"}
{"target": "FGFR3 (Homo sapiens, UniProt P22607)", "remaining activity": "97%"}
{"target": "NEK1 (Homo sapiens, UniProt Q96PY6)", "remaining activity": "90.9%"}
{"target": "MAPK3 (Homo sapiens, UniProt P27361)", "remaining activity": "101%"}
{"target": "MAP3K14 (Homo sapiens, UniProt Q99558)", "remaining activity": "97.3%"}
{"target": "MAP2K2 (Homo sapiens, UniProt P36507)", "remaining activity": "98.5%"}
{"target": "TAOK2 (Homo sapiens, UniProt Q9UL54)", "remaining activity": "93.3%"}
{"target": "FRK (Homo sapiens, UniProt P42685)", "remaining activity": "89.6%"}
{"target": "GSK3B (Homo sapiens, UniProt P49841)", "remaining activity": "47.1%"}
{"target": "WEE1 (Homo sapiens, UniProt P30291)", "remaining activity": "109%"}
{"target": "ACVR1B (Homo sapiens, UniProt P36896)", "remaining activity": "109%"}
{"target": "FGFR1 (Homo sapiens, UniProt P11362)", "remaining activity": "84.2%"}
{"target": "TBK1 (Homo sapiens, UniProt Q9UHD2)", "remaining activity": "97.7%"}
{"target": "MAPKAPK2 (Homo sapiens, UniProt P49137)", "remaining activity": "95.4%"}
{"target": "GRK7 (Homo sapiens, UniProt Q8WTQ7)", "remaining activity": "106%"}
{"target": "MAP3K5 (Homo sapiens, UniProt Q99683)", "remaining activity": "119%"}
{"target": "RPS6KA2 (Homo sapiens, UniProt Q15349)", "remaining activity": "80.8%"}
{"target": "TEK (Homo sapiens, UniProt Q02763)", "remaining activity": "100%"}
{"target": "EPHA3 (Homo sapiens, UniProt P29320)", "remaining activity": "86.2%"}
{"target": "ULK2 (Homo sapiens, UniProt Q8IYT8)", "remaining activity": "86.6%"}
{"target": "LCK (Homo sapiens, UniProt P06239)", "remaining activity": "88.6%"}
{"target": "MERTK (Homo sapiens, UniProt Q12866)", "remaining activity": "96.1%"}
{"data": "Study 6", "organism": "Sarcocystis neurona", "observed": "parasite growth", "concentration": "10 µM", "time": "96 h", "setting": "secondary screen"}
{"SMILES": "CN(C)CC/C=C1/c2ccccc2COc2ccc(CC(=O)O)cc21", "inhibition [%]": -17.7}
{"SMILES": "O=C(O)Cc1ccccc1Nc1c(Cl)cccc1Cl", "inhibition [%]": -5.5}
{"SMILES": "Cc1cnc(C(=O)NCCc2ccc(S(=O)(=O)NC(=O)NC3CCCCC3)cc2)cn1", "inhibition [%]": -4.7}
{"SMILES": "Clc1ccc2c(c1)C(N1CCNCC1)=Nc1ccccc1O2", "inhibition [%]": -16.8}
{"SMILES": "COc1ccccc1OCC(O)COC(N)=O (stereo not shown)", "inhibition [%]": -17.2}
{"SMILES": "O=c1c(O[C@@H]2O[C@H](CO)[C@@H](O)[C@H](O)[C@H]2O)c(-c2ccc(O)c(O)c2)oc2cc(O)cc(O)c12", "inhibition [%]": -12.1}
{"SMILES": "CN(C)CCC=C1c2ccccc2COc2ccccc21", "inhibition [%]": -21.2}
{"SMILES": "Cn1nnc2c(C(N)=O)ncn2c1=O", "inhibition [%]": -17.9}
{"SMILES": "CCC(=O)NS(=O)(=O)c1ccc(-c2c(-c3ccccc3)noc2C)cc1", "inhibition [%]": -13.1}
{"note": "Repeated from above (study 3):"}
{"SMILES": "Cc1cc2c(cc1S(N)(=O)=O)S(=O)(=O)CCC2", "nuclear SOX9 intensity": "109 % of DMSO"}
{"SMILES": "C[C@]12CC[C@@H]3c4ccc(O)cc4CC[C@H]3[C@@H]1C[C@@H](O)[C@@H]2O", "nuclear SOX9 intensity": "105 % of DMSO"}
{"SMILES": "COc1ccc2[nH]c3c(-c4cccc5ccccc45)nccc3c2c1", "nuclear SOX9 intensity": "199 % of DMSO"}
{"SMILES": "CC1(C)c2cc(Cl)ccc2N(CCc2nn[nH]n2)c2ccc(Cl)cc21", "nuclear SOX9 intensity": "96.5 % of DMSO"}
{"SMILES": "CCOC(=O)O[C@]1(C(=O)OCCl)CC[C@H]2[C@@H]3CCC4=CC(=O)C=C[C@]4(C)[C@H]3[C@@H](O)C[C@@]21C", "nuclear SOX9 intensity": "99.7 % of DMSO"}
